Measurements pooled from the literature.
Numbered parts are unrelated; each lists some results of a single study. Changes are numbered by the printed parent chain.

Study 1
Target: human cyclin A2
Read-out: peptide binding
Technique: competitive growth sequencing
Molecule type: peptide
Organism: Saccharomyces cerevisiae
Strain: cyclin A2-Cln2 fusion strain
Tested at: concentration not given
Relative to: unfused Cln2 strain
Direction: direction not given
Measurement: binding score
REPARRLFLFGEE: 1.09
KLLPRKLQFFCDP: 4.61
EDLLKELQKQLEE: -0.579

Study 2
Target: RNA binding protein fox-1 homolog 2, RRM domain, GST-SBP tag (RBFOX2, Homo sapiens, UniProt O43251-10, residues 100-194)
Technique: RNA Bind-n-Seq
Molecule type: RNA
Medium: in vitro
Tested at: 365 nM
Setting: natural RNA segment, single round, ends assumed
Relative to: no-protein control
Direction: higher = stronger binding
Measurement: RBNS enrichment (R)
Shared flanks, not repeated: GGGAGUUCUACAGUCCGACGAUC … UGGAAUUCUCGGGUGCCAA
Residues (chain): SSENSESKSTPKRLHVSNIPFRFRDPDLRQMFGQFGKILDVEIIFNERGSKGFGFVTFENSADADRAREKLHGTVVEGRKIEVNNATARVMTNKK
UGCUGCCUCCCCAGCAGGAACAAUAGUCAUAAAUGCACUUUUCACACUAAAGGUUUCUUUAUUAGUUCUCCAGUUAAACCUAGAUCCCUCCCUGGUAGAUUGCGAACUCA: 0.807
GUGUAUCUCAAGGGACUUAAUUCAGCUGUCUGUAGUGAAUAAAAGUGGGAAAUUUUCAAAAGUUUCUCCUGCUGGAAAUAAGGUAUAAUUUGUAUUUUGCAGACAAUUCA: 0.507
CGAGGCCCAGGUGUGGAAGCCCUCCUUCUGCUUCAAGUAACACAUCUCAGGGCCUGUCUUGUCCCCUUCUCGGAGGGCCAGAGAAAAGAUGUGGGAAGGAUAUAGCUCGG: 0.399
UUCACAAAGGAGUAGGCCAUGUAGGAGAAAGGGAUAGUGACUUAGUCUUAAGGUGACUAAGAUUCACCUCAGCAGAGCCAAUCUUUUUGGGGGGAUGGGAGGGAGACUUA: 0.542
GUUUUGUGAAAUUUUUCAUAUUUUAAUUUCAAGCUUAUUUUGGAGAGAUAGGAAGGUCAUUUCCAUGUAUGCAUAAUAAUCCUGCAAAGUACAGGUACUUUGUCUAAGAA: 1.25
UUAUAUAUCACCCUUUAGAUCUUGAUUUCUUGGUCAUUUCUCAACCUGAGGUGCAUAGCAUAUUCCCACAUUCCAUUUGGUAGCAAUAUGCGGUCUGAAUGCAUGCAUUC: 2.61
UGUUUUGAUUGGAAGGCAGAUUAUUUUAUAUUAGUAUUAAAAAUCAAACCCUAUGUUUCUUUCAGAUGAAUCUUCCAAAGUGGAUUAUAUUAAGCAGGUAUUAGAUUUAG: 0.559
AGUUUUAAUGCCAUUAGUUGUCAUGAAAGAAGUUAGUGUGCUCUCUGUAAUAAAUGUGCCUCUGAGGAACAUUCCUCCUUCCUAGAGGAGGGCUCUAAGAGGAACCAUCU: 0.284
AAGACUGGAGGAAGUGAACACUGGAGUGAAGAAGCGGUCUGUGCGUUGGUGAAGAACACACAUCGAUUCUGCACCUGGGGACCCAGAGCGAGAUGGGUUUGUUCGGUGCC: 1.18
CUUCCUGCACUUAACAAUAUGAAAUAGAAACUUUUGUCUUUACUGAGAUGAGGAUAUGUUUGAGAUGCACAGUUGGAUAAUGUGGGAAAAUGACAUCUAAGCUUUACCUG: 0.346
UAAUUUUUAAAUAUACUUGAAAUAAAAUGAUUAAAAUGAAUUUUGGUCCAGUCACAUUACUUUGCACUUCUUCUUCUUUUUUUUCUUUUUGUACAAAAUUUUAAAGACUU: 0.58
CAUGCCUUUAUGGGAGCAGCCACUCUCUGACUAAGUGGCCACUGCUCUCACUUAGACUUUGCUGUCCUCUAUGCUAACUAUGUAGAAGCUGGCUUUAGAUUAAAUGACUA: 0.262

Study 3
Target: ABI1, truncated, D143A, DHFR fusion (Arabidopsis thaliana)
Technique: DHFR PCA, deep sequencing
Medium: yeast
Setting: methotrexate growth selection, single substitutions
Together with: (+)-ABA 200 µM
Relative to: wild-type fitted maximum
Direction: higher = stronger binding
Measurement: relative binding score
Starting sequence: PYL1, truncated, DHFR fusion (Arabidopsis thaliana); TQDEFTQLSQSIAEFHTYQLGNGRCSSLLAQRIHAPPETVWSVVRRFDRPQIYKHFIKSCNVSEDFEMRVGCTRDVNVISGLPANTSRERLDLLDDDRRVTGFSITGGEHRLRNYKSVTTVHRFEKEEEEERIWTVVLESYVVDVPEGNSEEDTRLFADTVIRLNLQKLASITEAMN
S117N: 41.3%
A13N: 98.4%
K58S: 97.6%
D144P: 67.8%
E139N: 87.7%
F66N: 87.3%
M176F: 89.9%
V44R: 36.9%
F15G: 14.6%
I105V: 105%
E147K: 93.3%
Q19E: 105%
N114E: 58%
L93Y: 104%
R74D: 10.6%
F103C: -1.23%
Q2S: 97.3%

Study 4
Target: Interferon regulatory factor 7, full length, phosphomimetic (IRF7, Homo sapiens, UniProt Q92985, residues 1-503, S471D/S472D/S475D/S476D/S477D/S483D/S484D/S487D)
Technique: protein-binding microarray
Molecule type: double-stranded DNA, one strand shown
Medium: in vitro
Tested at: 2200 nM top
Setting: 60-bp whole probe
Together with: salmon DNA 0.4 mg/ml
Relative to: random background probes
Direction: higher = stronger binding
Measurement: fitted relative affinity
Shared flanks, not repeated: GCCTAGCAC … GTCTTGATTCGCTTGACGCTGCTG
Construct (chain): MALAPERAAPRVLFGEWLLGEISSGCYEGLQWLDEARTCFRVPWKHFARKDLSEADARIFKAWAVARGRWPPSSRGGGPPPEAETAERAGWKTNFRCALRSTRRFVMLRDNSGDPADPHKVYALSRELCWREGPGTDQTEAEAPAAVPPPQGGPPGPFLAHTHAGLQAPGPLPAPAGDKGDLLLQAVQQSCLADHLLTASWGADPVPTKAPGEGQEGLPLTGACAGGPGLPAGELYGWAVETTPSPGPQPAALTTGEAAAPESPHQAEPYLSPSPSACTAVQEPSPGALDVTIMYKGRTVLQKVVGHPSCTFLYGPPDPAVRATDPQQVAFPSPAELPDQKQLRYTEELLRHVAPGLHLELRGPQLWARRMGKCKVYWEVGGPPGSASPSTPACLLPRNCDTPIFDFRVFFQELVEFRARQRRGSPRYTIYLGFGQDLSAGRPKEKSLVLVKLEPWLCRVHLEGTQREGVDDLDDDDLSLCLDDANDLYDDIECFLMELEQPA
GACGGACGGCTTTTCCTGACGTGCTAG: -0.295 z-score
GATGGTATTTGCCTGTGGTCGTGCTAG: 0.47 z-score
GACGTTTTCGGGTTTCGGGACGTGCTA: 9.34 z-score
GACGATATCAGTATGGAGACGTGCTAG: 0.0487 z-score
CTCTGCTTCTGTATGGGCATGTGCTAG: 0.848 z-score
ATCTCACTCTAATCTCACTCTGTGCTA: 1.08 z-score
GACCGTATCGGGACTGGGGACGTGCTA: -0.351 z-score
TTAGGTATCGACACTGGGTTTGTGCTA: 0.038 z-score
TTAGGTATCGGTAGCGGTTAGTGCTAG: 0.00366 z-score
TTAGCTATCAGACTGGATTAGTGCTAG: -0.137 z-score
GACGGTCTCCCACTGCTGACGTGCTAG: 0.179 z-score
GTAGGTCTCGGTTTCGGTTAGTGCTAG: 6.96 z-score
ACCATTGTGGTTTTCATTATGTGCTAG: 1.38 z-score
TTAGGTATCGGTTATCGGTTAGTGCTA: 1.25 z-score
TTAGGTTTCCTGTCCCTTTAGTGCTAG: 2.15 z-score
TTAGGTATCGGTTTCGGTTGGTGCTAG: 9.5 z-score
TTAGGGTTCCTTTTCCTTTAGTGCTAG: 1.78 z-score
GACGATTCCAGTTTCTAGACGTGCTAG: 1.98 z-score
ACTCATTTTCGTTTTGTGTCGTGCTAG: 14.3 z-score
TTAGGTAACCTTTTCCTTTAGTGCTAG: 0.82 z-score
ATAGGTCTCCTTATCCTTTAGTGCTAG: 0.927 z-score
TCATTTTTTTTAATTGAACTGTGCTAG: 0.519 z-score
TTAGGTATCTGGTATCGGTTAGTGCTA: 0.547 z-score
TCATCTTTACTGCTCCAACTGTGCTAG: 1.66 z-score
AACACTCTTCTTTTGCTAATGTGCTAG: 1.38 z-score

Study 5
Target: Sal-like protein 4, full length isoform A (SALL4, Homo sapiens, UniProt Q9UJQ4, residues 1-1053)
UniProt Q9UJQ4, sequence (whole entry, looked up): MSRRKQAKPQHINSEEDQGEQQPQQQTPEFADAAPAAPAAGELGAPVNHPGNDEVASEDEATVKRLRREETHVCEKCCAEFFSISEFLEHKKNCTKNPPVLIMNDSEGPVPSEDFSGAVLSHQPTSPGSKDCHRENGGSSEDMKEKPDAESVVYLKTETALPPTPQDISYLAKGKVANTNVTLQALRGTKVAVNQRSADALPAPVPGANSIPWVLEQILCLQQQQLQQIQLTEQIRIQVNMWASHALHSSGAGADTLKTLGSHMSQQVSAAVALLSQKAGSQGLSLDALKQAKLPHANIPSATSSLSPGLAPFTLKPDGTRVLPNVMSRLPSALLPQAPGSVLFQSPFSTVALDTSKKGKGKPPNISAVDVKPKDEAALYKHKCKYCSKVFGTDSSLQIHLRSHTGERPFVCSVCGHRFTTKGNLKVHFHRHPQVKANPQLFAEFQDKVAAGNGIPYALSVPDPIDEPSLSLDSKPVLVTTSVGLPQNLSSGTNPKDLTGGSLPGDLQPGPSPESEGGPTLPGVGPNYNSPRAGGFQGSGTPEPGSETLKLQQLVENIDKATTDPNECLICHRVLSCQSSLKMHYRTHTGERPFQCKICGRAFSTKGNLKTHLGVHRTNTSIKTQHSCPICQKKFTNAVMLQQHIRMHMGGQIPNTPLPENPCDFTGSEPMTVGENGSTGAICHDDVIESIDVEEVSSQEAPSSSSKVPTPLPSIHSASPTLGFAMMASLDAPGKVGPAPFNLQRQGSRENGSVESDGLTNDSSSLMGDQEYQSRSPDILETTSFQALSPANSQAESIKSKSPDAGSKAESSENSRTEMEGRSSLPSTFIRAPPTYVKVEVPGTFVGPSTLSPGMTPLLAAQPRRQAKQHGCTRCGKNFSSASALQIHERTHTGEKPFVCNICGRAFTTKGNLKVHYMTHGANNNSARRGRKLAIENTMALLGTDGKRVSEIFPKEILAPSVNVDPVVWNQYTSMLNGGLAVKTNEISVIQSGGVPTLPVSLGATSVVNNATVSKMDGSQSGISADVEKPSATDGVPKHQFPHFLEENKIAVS
Technique: universal PBM
Molecule type: double-stranded DNA, one strand shown
Medium: in vitro
Tested at: 600 nM
Setting: 8-mer, flanks averaged, mean of replicates
Direction: higher = stronger binding
Measurement: E-score
CGACCCAC: -0.19
CGACGCCA: -0.25
TCGTTACA: 0.0107
CTTCCGAA: 0.0718
CGATAAGC: -0.0879
CAGCTATG: 0.15
AATCACGT: 0.28
AGCCTCCT: -0.203
CGGGGTAC: -0.292
ACCGAAAA: 0.158
CCTTTCAG: -0.133
CCTACGCA: -0.164
GTGCTCGA: -0.183
ACTAATGC: 0.115
CGGAGGAA: -0.266
CCACCTAA: -0.0536
AGGCAGGG: -0.156
GCACCAAA: 0.122
ATGCATTG: 0.103
GAAGTGTA: 0.0178
AGCAAGGA: -0.0396
AAGCTCGA: 0.0652
AACTTGAA: 0.231
ACAATAGA: 0.221
AAATCTGC: 0.0886

Study 6
Target: HLF, bZIP domain (human)
Technique: DHFR protein complementation
Medium: yeast
Setting: single substitutions, most at no-binding floor
Relative to: wild-type JUN-FOS pair
Direction: higher = stronger binding
Measurement: binding fitness
Starting sequence: JUN, bZIP domain (human); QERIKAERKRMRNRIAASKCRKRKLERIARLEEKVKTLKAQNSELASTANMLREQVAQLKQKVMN; partner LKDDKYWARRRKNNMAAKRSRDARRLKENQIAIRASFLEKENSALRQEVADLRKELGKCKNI
E44K: -1.38 natural log
A29E: -1.45 natural log
A40S: -1.48 natural log
Q41E: -1.37 natural log
S47G: -1.38 natural log
E54N: -1.47 natural log
L59A: -1.26 natural log
V56P: -1.55 natural log
Q55N: -1.38 natural log
R30C: -1.54 natural log
N42H: -1.32 natural log
L52K: -1.47 natural log
M51A: -1.35 natural log
A49V: -1.45 natural log
S43Q: -1.33 natural log
L52C: -1.47 natural log
S47K: -1.24 natural log
R53N: -1.52 natural log
A46W: -1.46 natural log
A40M: -1.29 natural log
M51D: -1.31 natural log
A57S: -1.46 natural log
L31K: -1.54 natural log
A46S: -1.27 natural log
S43E: -1.33 natural log

Excerpt of the above (study 4):
ACCATTGTGGTTTTCATTATGTGCTAG: 1.38 z-score
TTAGGTATCGGTTATCGGTTAGTGCTA: 1.25 z-score
TTAGGTTTCCTGTCCCTTTAGTGCTAG: 2.15 z-score
TTAGGTATCGGTTTCGGTTGGTGCTAG: 9.5 z-score
TTAGGGTTCCTTTTCCTTTAGTGCTAG: 1.78 z-score
GACGATTCCAGTTTCTAGACGTGCTAG: 1.98 z-score
ACTCATTTTCGTTTTGTGTCGTGCTAG: 14.3 z-score
TTAGGTAACCTTTTCCTTTAGTGCTAG: 0.82 z-score
ATAGGTCTCCTTATCCTTTAGTGCTAG: 0.927 z-score
TCATTTTTTTTAATTGAACTGTGCTAG: 0.519 z-score
TTAGGTATCTGGTATCGGTTAGTGCTA: 0.547 z-score
TCATCTTTACTGCTCCAACTGTGCTAG: 1.66 z-score
AACACTCTTCTTTTGCTAATGTGCTAG: 1.38 z-score
